Measured values from different studies.
Compare with care: the assays were run in different laboratories. ± marks the error that the study gave.

| Molecule | test | test system | conditions | how to read | measurement | value |
| --- | --- | --- | --- | --- | --- | --- |
| CCOc1ccc(Cc2cc([C@@H]3S[C@H](CO)[C@@H](O)[C@H](O)[C@H]3O)c(OC)cc2C)cc1 |  | Japanese type 2 diabetes patients, plasma | oral, 5 mg single dose, eGFR below 30 mL/min/1.73 m^2 |  | AUC(0-last) | 2350 ± 601 ng·h/mL |
| Cc1ccco1 | metabolic activation to acetaldehyde | pooled human liver microsomes | 10 min, low concentrations |  | Km | 32.9 µM |
| COc1cc(CCC(=O)O)ccc1O[C@@H]1O[C@H](C(=O)O)[C@@H](O)[C@H](O)[C@H]1O |  | human, fasted baseline, cerebrospinal fluid |  |  | median concentration | 1.7 nM |
| Polymyxin B |  | plasma | 5 µg/mL, blood flow 100 mL/min, dialysate flow 4800 mL/h |  | clearance | 17.2 ± 8.5 mL/min |
| CS(=O)(=O)n1cc2c(n1)CN([C@H]1CO[C@H](c3cc(F)ccc3F)[C@@H](N)C1)C2 |  | healthy male human, plasma | oral, 100 mg, fasted, geometric mean |  | AUC(0-24h) | 34.5 µM·h |
| CCN1CCN(c2ccc(Nc3cc(N(C)C(=O)Nc4c(Cl)c(OC)cc(OC)c4Cl)ncn3)cc2)CC1 | LC-MS/MS | juvenile male Crl:WI(Han) rats, plasma | oral gavage, 0.3 mg/kg/day, postnatal day 17 |  | AUC(0-t) | 103 ng·h/mL |
| C[C@]12CC[C@@H]3c4ccc(O)cc4CC[C@H]3[C@@H]1C[C@@H](O)[C@@H]2O | GC-MS | breast cancer women on NSAI, serum | vaginal, 0.03 mg daily, 8 h, day 28 |  | maximum serum concentration | 0.0437 ng/mL |
| Cc1cc(C)c2c(c1)[C@@H](N(Cc1cc(C(F)(F)F)cc(C(F)(F)F)c1)c1nnn(C)n1)CCCN2C[C@H]1CC[C@H](C(=O)O)CC1 |  | human, dyslipidemic patients, plasma | oral, 100 mg daily, geometric mean, together with: simvastatin |  | AUC(0-tau) at steady state | 5620 ng·h/mL |
| NCCS(=O)(=O)O | mitochondrial swelling | BALB/cByJ female mouse liver mitochondria | 30 min, together with: succinate + rotenone | reference: CaCl2 maximal swelling | EC20 | > 800 µM |
| CCN1CCN(Cc2ccc(Nc3ncc(F)c(-c4cc(F)c5nc(C)n(C(C)C)c5c4)n3)nc2)CC1 | population PK model | human | oral |  | fraction absorbed | 45.8% |
| CC1(C)S[C@@H]2[C@H](NC(=O)[C@H](N)c3ccccc3)C(=O)N2[C@H]1C(=O)O | mitochondrial swelling | BALB/cByJ female mouse liver mitochondria | 30 min, together with: succinate + rotenone | reference: CaCl2 maximal swelling | EC20 | > 400 µM |
| COC(=O)C[C@](O)(CCCC(C)(C)O)C(=O)O[C@@H]1C(OC)=C[C@]23CCCN2CCc2cc4c(cc2[C@H]13)OCO4 |  | CD1 mouse, bone marrow | oral, 1 mg/kg, 0.5 h, below quantification limit 1.00 ng/mL |  | tissue concentration | not detected |
| CCc1oc2ccc(O)cc2c1C(=O)c1cc(Br)c(O)c(Br)c1 | metabolic stability | Sprague-Dawley rat, liver microsomes | 1 µM, pH 7.4 |  | microsomal CLint | 43.7 µL/min/mg |
| COc1cccc2c1C(=O)c1c(O)c3c(c(O)c1C2=O)C[C@@](O)(C(C)=O)C[C@@H]3O[C@H]1C[C@H](N)[C@H](O)[C@H](C)O1 | mitochondrial swelling | BALB/cByJ female mouse liver mitochondria | 30 min, together with: succinate + rotenone | reference: CaCl2 maximal swelling | EC20 | < 6.25 µM |
| Cn1c(-c2ccc(C(N)=O)cc2F)nnc1C(C)(C)Oc1c(F)cc(Cl)cc1F |  | young Japanese adults, plasma | oral, 50 mg single dose, day 1, high-dose multiple-dose study |  | half-life median | 10.1 h |
| C[C@@H](O)[C@H]1C(=O)N2C(C(=O)O)=C(S[C@@H]3CN[C@H](C(=O)N(C)C)C3)[C@H](C)[C@H]12 | microdialysis | pig, Danish Landrace, subcutaneous adipose tissue | intravenous, 1000 mg over 10 min, 450 min dosing interval, together with: 0.25 µg/mL MIC | reference: dosing interval | time above MIC | 69% |

Repeated from above:
| Molecule | test | test system | conditions | how to read | measurement | value |
| --- | --- | --- | --- | --- | --- | --- |
| CC1(C)S[C@@H]2[C@H](NC(=O)[C@H](N)c3ccccc3)C(=O)N2[C@H]1C(=O)O | mitochondrial swelling | BALB/cByJ female mouse liver mitochondria | 30 min, together with: succinate + rotenone | reference: CaCl2 maximal swelling | EC20 | > 400 µM |
| COC(=O)C[C@](O)(CCCC(C)(C)O)C(=O)O[C@@H]1C(OC)=C[C@]23CCCN2CCc2cc4c(cc2[C@H]13)OCO4 |  | CD1 mouse, bone marrow | oral, 1 mg/kg, 0.5 h, below quantification limit 1.00 ng/mL |  | tissue concentration | not detected |
